{"data": "Experimental data gathered from unrelated publications", "note": "Lines come from different studies, so protocols differ. ± gives the spread as reported."}
{"Compound": "Nc1ncc(-c2ccc3ncnc(N4CCc5cc(F)c(Cl)cc54)c3c2)cn1", "test system": "CD1 mouse, plasma", "conditions": "intraperitoneal, 50 mg/kg", "measurement": "Cmax", "result": "4290 ng/mL"}
{"Compound": "CC(C)n1nnc(-c2cc(O)cc(Nc3ncnn4ccc(CN5CCC(N)CC5)c34)c2)n1", "test system": "mouse, formalin model", "measurement": "brain to plasma ratio", "result": "~0.02"}
{"Compound": "Cc1cc(NC(=O)c2cccc(NC(=O)C3=CC(C)(C)CCC3=O)c2)ccc1Nc1nccc(-c2cccnc2)n1", "test system": "rat plasma", "conditions": "1 µM, 20 min", "measurement": "compound remaining", "result": "102%"}
{"Compound": "COc1cc([C@@H]2c3cc4c(cc3C=C(C=O)[C@H]2C(=O)OCCCCCCBr)OCO4)cc(OC)c1OC", "target or system": "HepG2", "assay": "Alamar Blue", "conditions": "48 h", "measurement": "CC50", "result": "68.9 ± 6 µM"}
{"Compound": "Cc1nc(-c2ccc(C(F)(F)F)c(F)c2)sc1CSc1ccc(OCC(=O)O)cc1", "target or system": "HEK293T", "conditions": "18 h", "measurement": "CC50", "result": "> 100 µM"}
{"Compound": "COC(=O)[C@@H]1C(c2nc3ccccc3o2)=Cc2cc3c(cc2[C@H]1c1cc(OC)c(OC)c(OC)c1)OCO3", "target or system": "mouse splenocytes uninfected", "assay": "Alamar Blue", "conditions": "48 h", "measurement": "CC50", "result": "> 100 µM"}
{"Compound": "COc1ccc(CC(=O)OCc2ccc(-n3cccn3)cc2)cc1F", "test system": "mouse plasma", "measurement": "half-life", "result": "> 2.5 h"}
{"Compound": "Cc1cc(SCc2sc(-c3cc(C(F)(F)F)cc(C(F)(F)F)c3)nc2C)ccc1OCC(=O)O", "target or system": "HEK293T", "conditions": "18 h", "measurement": "CC50", "result": "> 50 µM"}
{"Compound": "CCCSc1nc(N[C@@H]2C[C@H]2c2ccc(F)c(F)c2)c2nnn([C@@H]3C[C@H](O)[C@@H](O)[C@H]3O)c2n1", "test system": "rat, male, plasma", "conditions": "oral, 20 mg/kg/day ticagrelor, week 52", "measurement": "AUC", "result": "20 µM·h"}
{"Compound": "Cc1cc(SCc2sc(-c3cccc(OC(F)(F)F)c3)nc2C)ccc1OCC(=O)O", "target or system": "HEK293T", "conditions": "18 h", "measurement": "CC50", "result": "> 50 µM"}
{"Compound": "COc1cc([C@@H]2c3cc4c(cc3[C@](O)(C3(O)CCOCC3)[C@H]3COC(=O)[C@H]23)OCO4)cc(OC)c1OC", "target or system": "HepG2", "assay": "Alamar Blue", "conditions": "48 h", "measurement": "CC50", "result": "> 100 µM"}
{"Compound": "Cc1cc(SCc2sc(-c3ccc4[nH]ncc4c3)nc2C)ccc1OCC(=O)O", "target or system": "HEK293T", "conditions": "18 h", "measurement": "CC50", "result": "not toxic"}
{"Compound": "COC(=O)[C@@H]1C(C=Nc2cncnc2N)=Cc2cc3c(cc2[C@H]1c1cc(OC)c(OC)c(OC)c1)OCO3", "target or system": "HepG2", "assay": "Alamar Blue", "conditions": "48 h", "measurement": "CC50", "result": "32.4 ± 0.6 µM"}
{"Compound": "Cc1cc(SCc2sc(-c3ccccc3C(F)(F)F)nc2C)ccc1OCC(=O)O", "target or system": "HEK293T", "conditions": "18 h", "measurement": "CC50", "result": "> 100 µM"}
{"Compound": "COC(=O)[C@@H]1C(c2nc3cncnc3[nH]2)=Cc2cc3c(cc2[C@H]1c1cc(OC)c(OC)c(OC)c1)OCO3", "target or system": "mouse splenocytes uninfected", "assay": "Alamar Blue", "conditions": "48 h", "measurement": "CC50", "result": "53.3 ± 3.5 µM"}
{"Compound": "Cc1cc(SCc2sc(-c3cccc4[nH]ncc34)nc2C)ccc1OCC(=O)O", "target or system": "HEK293T", "conditions": "18 h", "measurement": "CC50", "result": "> 100 µM"}
{"Compound": "CCCCNCC1=Cc2cc3c(cc2[C@@H](c2cc(OC)c(OC)c(OC)c2)[C@@H]1C(=O)OC)OCO3", "target or system": "HepG2", "assay": "Alamar Blue", "conditions": "48 h", "measurement": "CC50", "result": "6.6 ± 0.4 µM"}
{"Compound": "Cc1n[nH]c(C)c1CCOC(=O)c1cccc2c1oc(=O)n2C", "conditions": "pH 7.4", "measurement": "logD", "result": 1.87}
{"note": "For quick reference, copied from above:"}
{"Compound": "Cc1cc(SCc2sc(-c3ccc4[nH]ncc4c3)nc2C)ccc1OCC(=O)O", "target or system": "HEK293T", "conditions": "18 h", "measurement": "CC50", "result": "not toxic"}
{"Compound": "COC(=O)[C@@H]1C(C=Nc2cncnc2N)=Cc2cc3c(cc2[C@H]1c1cc(OC)c(OC)c(OC)c1)OCO3", "target or system": "HepG2", "assay": "Alamar Blue", "conditions": "48 h", "measurement": "CC50", "result": "32.4 ± 0.6 µM"}
